Results from different studies.
Every numbered part comes from another study and shows a few of its results, in no order. Positions count from the first letter of the parent shown.

Block 1
Target: RNA binding protein fox-1 homolog 2, RRM domain, GST-SBP tag (RBFOX2, Homo sapiens, UniProt O43251-10, residues 100-194)
Method: RNA Bind-n-Seq
Form: RNA
Matrix: in vitro
Concentration: 365 nM
Setting: natural RNA segment, single round, ends assumed
Baseline: no-protein control
Reading: higher = stronger binding
Endpoint: RBNS enrichment (R)
Construct (chain): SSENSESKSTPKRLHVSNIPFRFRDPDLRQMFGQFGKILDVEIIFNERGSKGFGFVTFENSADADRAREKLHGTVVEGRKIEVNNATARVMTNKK
Strand = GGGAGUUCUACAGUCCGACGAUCAGCAUUCUCUAUUUCUAAAGCCCACUUAUAACCCAGCAUACAAAUAGAUCUUAACAGUUUAUUAUUAACUUUUCAGGUCCUCAUUUAUUGAAAUUUAAAAAUAAAUGAAGUGGAAUUCUCGGGUGCCAA; result = 0.593
Strand = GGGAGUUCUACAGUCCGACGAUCCCACAGGUUUUUUGAGCUGGUGUGGAUUAGUUUAACUCUUGUAUUCAACCAUUAGUGCUACCACCUUCUCACAUUACAAUACAAUUACUGGAAGCAAGUACUGCAUUUCCUGGAAUUCUCGGGUGCCAA; result = 0.401
Strand = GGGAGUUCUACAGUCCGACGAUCCUCCCCAGCUGACACCCCAAGCACAGCCCCGGCACACCGCACUUUACCGGGAGGCAGGCUGUGCACAGAACCCUCUGCUGUGGAGGCCAGAGACCACCACCAGGCCCGCUUGGAAUUCUCGGGUGCCAA; result = 0.341
Strand = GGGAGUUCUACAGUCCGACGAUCUUGUUACUCAAUAUGUCUACUCAGAAUACGUUUACCCUCCGUCUUGAUUAGGUGGCCUUUUCUGUGCAGUUACUAAUCACAGGAAUUUGGUAGUAGUGAAAAUCAGGUUUUGGAAUUCUCGGGUGCCAA; result = 0.383
Strand = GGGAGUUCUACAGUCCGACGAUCCCAGGUGAUUUUGUUUUCAAAUGCUCCUUGUGAAAACACCUAGUGUUGUAGAAAGGAAAGUGGCCAGAAAGAACAACUUGGGACCAUGAGUAGGUCAUUAAAUAGCUUAGUGGAAUUCUCGGGUGCCAA; result = 0.225
Strand = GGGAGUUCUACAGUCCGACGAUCAUGUCGAGACUUAACGAAGGCUGAUGGAAACCCAGGAAGCCCAGUGGGCAGCUUCUGCCUAGGGCAGAGCCCACAAACCAGUGCGUCUGUGCAGAACGUCUGGAUGGACAUGGAAUUCUCGGGUGCCAA; result = 0.324

Block 2
Target: CCNF, cyclin fold, Cln2 fusion (human)
Method: yeast growth competition, sequencing
Matrix: yeast
Setting: strong parent motif
Baseline: not given
Reading: higher = stronger binding
Endpoint: normalised enrichment score
Parent: CDC6 docking peptide (human); TLKGRRLVFDNQL
Variant = D10R; result = 7.16
Variant = L13P; result = 10
Variant = G4A; result = 7.9
Variant = Q12T; result = 8.7
Variant = K3V; result = 8.35

Block 3
Target: TAR DNA-binding protein 43, full length, His tag (TARDBP, Homo sapiens, UniProt Q13148, residues 1-414)
Method: RNA Bind-n-Seq
Form: RNA
Matrix: in vitro
Concentration: 20 nM
Setting: 6-mer, flanks averaged, single round
Together with: 150 mM KCl
Baseline: input library
Reading: higher = stronger binding
Endpoint: 6-mer enrichment (R)
Strand = GUUUGC; result = 0.854
Strand = UGAGUA; result = 0.885
Strand = AAGCUG; result = 0.783
Strand = GGUCAA; result = 0.955
Strand = CAAGUA; result = 0.658

Single results of other studies
Molecule = PhoQ, residues 284 288 289 292 302 303 NLGVHL; target = PhoP, residues 12 14 15 18 19 SQCLL (Escherichia coli, UniProt P23836); test = Sort-seq, measured: YFP reporter; test system = E. coli; setting = PhoQ-PhoP variant library, together with: 10 µM Mg2+; scale = baseline: high Mg2+ state, higher = stronger signaling; endpoint = fold induction; result = 5.99

For quick reference, copied from above (block 3):
Strand = AAGCUG; result = 0.783
